Measurements gathered from unrelated publications.
Parts stem from different laboratories: compare values within a part only.

Study 1
Target: Sal-like protein 4, full length isoform B (SALL4, Homo sapiens, UniProt Q9UJQ4-2, residues 1-616)
Method: universal PBM
Form: double-stranded DNA, one strand shown
Matrix: in vitro
Tested at: not given
Notes: 8-mer, flanks averaged, mean of replicates
Reading: higher = stronger binding
Endpoint: E-score
Target sequence (chain): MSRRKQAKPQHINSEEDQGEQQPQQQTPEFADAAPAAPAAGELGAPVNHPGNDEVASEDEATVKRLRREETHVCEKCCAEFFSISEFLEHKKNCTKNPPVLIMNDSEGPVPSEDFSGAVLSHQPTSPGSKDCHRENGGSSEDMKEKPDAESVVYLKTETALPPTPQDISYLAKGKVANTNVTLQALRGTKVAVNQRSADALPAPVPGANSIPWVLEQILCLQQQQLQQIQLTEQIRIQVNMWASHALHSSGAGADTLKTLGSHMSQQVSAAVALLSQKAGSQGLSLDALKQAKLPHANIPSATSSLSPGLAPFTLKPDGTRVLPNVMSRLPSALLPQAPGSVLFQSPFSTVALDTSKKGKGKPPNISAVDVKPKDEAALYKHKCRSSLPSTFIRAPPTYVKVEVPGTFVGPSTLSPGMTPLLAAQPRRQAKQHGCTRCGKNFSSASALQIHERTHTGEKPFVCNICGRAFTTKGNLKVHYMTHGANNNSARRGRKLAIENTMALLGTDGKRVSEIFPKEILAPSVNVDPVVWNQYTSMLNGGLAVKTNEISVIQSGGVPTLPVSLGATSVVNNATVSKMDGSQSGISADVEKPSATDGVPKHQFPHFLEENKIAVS
AAATAACA: 0.326
GATAACGA: 0.181
AAATCCAC: 0.037

Study 2
Target: Interferon regulatory factor 5, full length, phosphomimetic (IRF5, Homo sapiens, UniProt Q13568-2, residues 1-514, S451D/S453D/S456D/S462D)
Method: protein-binding microarray
Form: double-stranded DNA, one strand shown
Matrix: in vitro
Tested at: 940 nM top
Notes: 60-bp whole probe
With: salmon DNA 0.4 mg/ml
Relative to: random background probes
Reading: higher = stronger binding
Endpoint: fitted relative affinity
GCCTAGCACCTCCCATTATATTTTAATCAGTGCTAGGTCTTGATTCGCTTGACGCTGCTG: 1 z-score
GCCTAGCACCCATTCTTGGGACTCACCTGGTGCTAGGTCTTGATTCGCTTGACGCTGCTG: -0.153 z-score
GCCTAGCACGACGAACTGGGCACTGGAGACGTGCTAGTCTTGATTCGCTTGACGCTGCTG: -0.673 z-score
GCCTAGCACGACGATATCTGACTGGAGACGTGCTAGGTCTTGATTCGCTTGACGCTGCTG: -0.377 z-score

Study 3
Target: Histone acetyltransferase KAT6A, winged helix 2, GST fusion (KAT6A, Homo sapiens, UniProt Q92794, residues 85-181)
Method: protein binding microarray
Form: double-stranded DNA, one strand shown
Matrix: in vitro
Tested at: not given
Notes: 8-mer, flanks averaged, mean of 2 arrays, mostly near background
Relative to: not given
Reading: higher = stronger binding
Endpoint: E-score
Target sequence (chain): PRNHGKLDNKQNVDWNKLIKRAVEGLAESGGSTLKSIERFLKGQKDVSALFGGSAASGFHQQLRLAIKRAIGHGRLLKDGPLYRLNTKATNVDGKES
CACTCAGG: 0.109
ATGCTTGG: -0.0266
CATAGATC: -0.0941
AAGACCCA: -0.134

Further values, each from its own experiment
PhoQ, residues 284 288 289 292 302 303 NLCILV — fold induction (PhoP, residues 12 14 15 18 19 SQCLL (Escherichia coli, UniProt P23836); Sort-seq, measured: YFP reporter; E. coli; PhoQ-PhoP variant library, with: 10 µM Mg2+; relative to: high Mg2+ state, higher = stronger signaling): 12.5
